Values quoted from earlier work that unrelated publications cite.
Compare with care: the assays were run in different laboratories. ± gives the spread as reported.
UniProt Q8N5S9, sequence (whole entry, looked up): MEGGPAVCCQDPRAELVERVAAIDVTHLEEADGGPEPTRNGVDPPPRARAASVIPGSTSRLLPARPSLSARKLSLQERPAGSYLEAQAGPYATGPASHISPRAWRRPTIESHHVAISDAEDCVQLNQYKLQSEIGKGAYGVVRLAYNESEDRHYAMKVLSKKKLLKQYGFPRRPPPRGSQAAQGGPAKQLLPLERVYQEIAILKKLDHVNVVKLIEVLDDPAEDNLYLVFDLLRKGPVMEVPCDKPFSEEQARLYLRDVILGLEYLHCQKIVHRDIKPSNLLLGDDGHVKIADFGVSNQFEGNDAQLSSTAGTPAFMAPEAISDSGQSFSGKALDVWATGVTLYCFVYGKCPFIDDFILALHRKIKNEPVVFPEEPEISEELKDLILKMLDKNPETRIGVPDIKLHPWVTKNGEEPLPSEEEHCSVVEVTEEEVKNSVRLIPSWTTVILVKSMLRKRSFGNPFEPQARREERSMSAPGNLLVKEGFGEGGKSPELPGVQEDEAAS

Structure (SMILES) | tested on | test | test system | conditions | scale | quantity | result
Nc1cc(C(F)(F)F)c(-c2nc(N3CCOCC3)nc(N3CCOCC3)n2)cn1 | CAMKK1 (Homo sapiens, UniProt Q8N5S9) | enzyme activity | – | 10 µM | relative to: untreated | remaining activity | 100%
COc1cccc2c1C(=O)c1c(O)c3c(c(O)c1C2=O)C[C@@](O)(C(=O)CO)C[C@@H]3O[C@H]1C[C@H](N)[C@H](O)[C@H](C)O1 | – | – | human, plasma | intravenous infusion, 30 mg/m^2, 8 h infusion | – | Cmax | 160 ± 90 nM
CNCc1cc(-c2ccccc2F)n(S(=O)(=O)c2cccnc2)c1 | – | – | human, plasma | 40 mg multiple dose, observed clinical data | – | Cmax | 58 ng/mL
C=CC(=O)N1CCC([C@@H]2CCNc3c(C(N)=O)c(-c4ccc(Oc5ccccc5)cc4)nn32)CC1 | – | – | human patients, plasma | oral, 160 mg twice daily, day 8 | – | Cmax | 344 ± 161 ng/mL
COc1cc2c(Oc3ccc4[nH]c(C)cc4c3F)ccnc2cc1OCC1(N)CC1 | – | – | human, fasting | 5 mg | – | Cmax | 3.9 ± 1.6 ng/mL
COCCc1ccc(OCC(O)CNC(C)C)cc1 (centres unmarked) | – | – | human fasted | 100 mg multiple doses, day 7, mean | – | Cmax | 39 ng/mL
O=C(c1cccnc1-c1ccncc1)N1CCC(O)(Cc2ccccc2)CC1 | – | – | human, plasma | 300 mg single dose, with: itraconazole | – | Cmax | 1530 ng/mL
C[C@@H](Oc1ccc(S(C)(=O)=O)cc1C(=O)N1C[C@@H]2C[C@]2(c2cc(C(F)(F)F)on2)C1)C(F)(F)F | – | – | human | oral, 50 mg, solution, fasted, single dose | – | Cmax | 865 nM
COc1ccc2[nH]c([S+]([O-])Cc3ncc(C)c(OC)c3C)nc2c1 (centres unmarked) | – | – | human obese subjects | oral tablet, 20 mg once daily, day 6 | – | Cmax | 749 ng/mL
Cc1cc(C)c(CNC(=O)c2cc(Cl)c3c(c2C)O[C@@](C)([C@H]2CC[C@H](N(C)C)CC2)O3)c(=O)[nH]1 | – | – | human, plasma | oral, 50 mg single dose, study, geometric mean | – | Cmax | 306 ng/mL
Cc1nsc(-c2nnc3n2CCN(C(=O)c2ccc(F)cc2)[C@@H]3C)n1 | – | – | human | oral, 45 mg, single dose, market formulation | – | Cmax | 506 ng/mL

Repeated from above:
Structure (SMILES) | tested on | test | test system | conditions | scale | quantity | result
Cc1cc(C)c(CNC(=O)c2cc(Cl)c3c(c2C)O[C@@](C)([C@H]2CC[C@H](N(C)C)CC2)O3)c(=O)[nH]1 | – | – | human, plasma | oral, 50 mg single dose, study, geometric mean | – | Cmax | 306 ng/mL
COc1cc2c(Oc3ccc4[nH]c(C)cc4c3F)ccnc2cc1OCC1(N)CC1 | – | – | human, fasting | 5 mg | – | Cmax | 3.9 ± 1.6 ng/mL
